Assay results gathered from unrelated publications.
Every numbered part comes from another study and shows a few of its results, in no order.
Chain of UniProt P22455 (whole entry, looked up): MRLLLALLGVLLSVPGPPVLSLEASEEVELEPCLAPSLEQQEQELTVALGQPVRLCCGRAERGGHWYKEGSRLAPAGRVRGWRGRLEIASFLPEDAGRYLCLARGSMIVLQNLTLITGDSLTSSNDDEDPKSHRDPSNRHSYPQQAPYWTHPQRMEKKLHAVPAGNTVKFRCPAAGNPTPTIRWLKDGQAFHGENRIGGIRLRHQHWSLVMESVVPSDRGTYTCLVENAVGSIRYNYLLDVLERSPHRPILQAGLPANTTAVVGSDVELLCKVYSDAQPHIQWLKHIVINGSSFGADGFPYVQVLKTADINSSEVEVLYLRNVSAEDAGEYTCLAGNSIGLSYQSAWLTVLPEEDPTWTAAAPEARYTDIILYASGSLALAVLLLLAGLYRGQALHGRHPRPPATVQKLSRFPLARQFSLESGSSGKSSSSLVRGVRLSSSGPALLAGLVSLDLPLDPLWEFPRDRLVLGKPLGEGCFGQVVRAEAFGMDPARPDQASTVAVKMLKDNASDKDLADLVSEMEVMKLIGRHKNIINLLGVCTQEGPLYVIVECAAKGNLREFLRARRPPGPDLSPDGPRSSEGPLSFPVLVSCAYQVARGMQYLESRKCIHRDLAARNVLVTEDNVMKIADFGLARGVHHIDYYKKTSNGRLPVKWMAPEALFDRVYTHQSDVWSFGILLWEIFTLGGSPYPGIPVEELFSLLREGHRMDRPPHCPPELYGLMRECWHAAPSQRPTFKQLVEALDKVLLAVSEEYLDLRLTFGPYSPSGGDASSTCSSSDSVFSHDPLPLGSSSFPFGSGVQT
Chain of UniProt P07333 (whole entry, looked up): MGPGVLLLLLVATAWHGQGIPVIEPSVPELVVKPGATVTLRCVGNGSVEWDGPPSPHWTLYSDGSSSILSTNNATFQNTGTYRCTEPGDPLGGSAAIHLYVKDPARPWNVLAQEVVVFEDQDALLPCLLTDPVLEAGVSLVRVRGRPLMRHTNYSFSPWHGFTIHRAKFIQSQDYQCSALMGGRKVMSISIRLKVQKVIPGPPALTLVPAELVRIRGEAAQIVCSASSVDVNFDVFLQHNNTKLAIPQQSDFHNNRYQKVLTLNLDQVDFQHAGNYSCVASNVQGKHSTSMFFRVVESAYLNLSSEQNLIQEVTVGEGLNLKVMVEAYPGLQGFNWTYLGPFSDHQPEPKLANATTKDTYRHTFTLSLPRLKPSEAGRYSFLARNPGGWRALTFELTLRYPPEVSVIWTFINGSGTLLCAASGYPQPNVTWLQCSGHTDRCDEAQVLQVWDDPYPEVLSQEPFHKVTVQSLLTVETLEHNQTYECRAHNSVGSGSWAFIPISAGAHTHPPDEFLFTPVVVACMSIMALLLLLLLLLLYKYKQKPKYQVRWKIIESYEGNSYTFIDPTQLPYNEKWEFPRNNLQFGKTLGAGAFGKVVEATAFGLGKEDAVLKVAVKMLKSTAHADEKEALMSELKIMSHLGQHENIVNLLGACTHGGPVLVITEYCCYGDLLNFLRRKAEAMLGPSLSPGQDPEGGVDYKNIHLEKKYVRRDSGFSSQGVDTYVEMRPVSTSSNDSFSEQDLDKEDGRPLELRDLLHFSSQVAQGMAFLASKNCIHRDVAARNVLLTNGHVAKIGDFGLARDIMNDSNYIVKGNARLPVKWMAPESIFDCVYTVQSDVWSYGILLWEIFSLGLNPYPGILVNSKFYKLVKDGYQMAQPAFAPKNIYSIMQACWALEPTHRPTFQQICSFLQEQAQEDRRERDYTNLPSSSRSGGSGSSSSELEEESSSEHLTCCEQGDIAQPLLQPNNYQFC
Chain of UniProt Q9UPE1 (whole entry, looked up): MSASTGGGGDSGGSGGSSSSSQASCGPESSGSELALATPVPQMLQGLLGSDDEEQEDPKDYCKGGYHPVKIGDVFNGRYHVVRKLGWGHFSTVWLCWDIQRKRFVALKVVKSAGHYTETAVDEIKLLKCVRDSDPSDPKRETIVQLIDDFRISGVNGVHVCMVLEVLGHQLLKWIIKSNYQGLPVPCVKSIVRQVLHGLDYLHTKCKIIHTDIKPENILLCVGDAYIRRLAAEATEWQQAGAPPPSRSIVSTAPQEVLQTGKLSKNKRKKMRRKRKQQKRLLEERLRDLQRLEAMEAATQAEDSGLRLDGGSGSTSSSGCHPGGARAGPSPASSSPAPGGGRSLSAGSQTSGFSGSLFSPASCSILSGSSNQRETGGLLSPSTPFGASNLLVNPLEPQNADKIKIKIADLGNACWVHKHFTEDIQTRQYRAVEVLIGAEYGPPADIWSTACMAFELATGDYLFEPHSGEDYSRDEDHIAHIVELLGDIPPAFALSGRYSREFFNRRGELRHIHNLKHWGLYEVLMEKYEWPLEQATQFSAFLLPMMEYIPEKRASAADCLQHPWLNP
Chain of UniProt P06213 (whole entry, looked up): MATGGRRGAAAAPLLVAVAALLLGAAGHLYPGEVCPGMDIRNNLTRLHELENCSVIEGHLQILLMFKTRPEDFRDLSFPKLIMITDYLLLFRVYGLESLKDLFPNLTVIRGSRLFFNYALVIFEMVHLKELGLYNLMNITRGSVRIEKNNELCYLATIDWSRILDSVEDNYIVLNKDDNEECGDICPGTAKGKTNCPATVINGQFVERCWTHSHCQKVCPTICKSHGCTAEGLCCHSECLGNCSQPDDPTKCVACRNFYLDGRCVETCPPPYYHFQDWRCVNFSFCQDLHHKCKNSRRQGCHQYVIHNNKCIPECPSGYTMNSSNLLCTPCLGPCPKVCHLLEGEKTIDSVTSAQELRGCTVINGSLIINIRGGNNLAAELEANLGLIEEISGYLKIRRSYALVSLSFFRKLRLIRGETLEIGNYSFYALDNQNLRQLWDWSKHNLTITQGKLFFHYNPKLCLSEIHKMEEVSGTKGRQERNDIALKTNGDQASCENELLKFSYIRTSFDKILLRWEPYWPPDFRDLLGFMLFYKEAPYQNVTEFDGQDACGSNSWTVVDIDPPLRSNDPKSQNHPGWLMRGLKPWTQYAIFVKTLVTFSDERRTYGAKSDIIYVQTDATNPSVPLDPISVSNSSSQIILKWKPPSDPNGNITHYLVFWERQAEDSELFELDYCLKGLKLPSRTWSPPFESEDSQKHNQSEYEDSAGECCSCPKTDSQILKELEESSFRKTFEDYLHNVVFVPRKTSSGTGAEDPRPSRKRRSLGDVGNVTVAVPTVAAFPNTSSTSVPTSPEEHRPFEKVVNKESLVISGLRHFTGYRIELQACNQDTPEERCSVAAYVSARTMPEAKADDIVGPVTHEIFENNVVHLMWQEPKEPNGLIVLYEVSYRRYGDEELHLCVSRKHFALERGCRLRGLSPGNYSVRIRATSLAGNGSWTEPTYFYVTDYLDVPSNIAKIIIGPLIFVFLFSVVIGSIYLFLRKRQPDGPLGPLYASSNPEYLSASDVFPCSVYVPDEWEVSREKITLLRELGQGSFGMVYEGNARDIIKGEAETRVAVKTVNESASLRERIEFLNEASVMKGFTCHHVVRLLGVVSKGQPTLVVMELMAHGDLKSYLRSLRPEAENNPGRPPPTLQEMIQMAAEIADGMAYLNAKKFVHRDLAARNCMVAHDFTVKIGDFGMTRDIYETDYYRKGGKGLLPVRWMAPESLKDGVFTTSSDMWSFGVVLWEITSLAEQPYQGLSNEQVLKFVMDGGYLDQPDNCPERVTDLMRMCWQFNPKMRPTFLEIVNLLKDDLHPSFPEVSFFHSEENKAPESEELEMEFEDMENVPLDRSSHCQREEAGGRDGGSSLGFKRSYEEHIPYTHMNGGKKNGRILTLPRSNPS
Chain of UniProt O60285 (whole entry, looked up): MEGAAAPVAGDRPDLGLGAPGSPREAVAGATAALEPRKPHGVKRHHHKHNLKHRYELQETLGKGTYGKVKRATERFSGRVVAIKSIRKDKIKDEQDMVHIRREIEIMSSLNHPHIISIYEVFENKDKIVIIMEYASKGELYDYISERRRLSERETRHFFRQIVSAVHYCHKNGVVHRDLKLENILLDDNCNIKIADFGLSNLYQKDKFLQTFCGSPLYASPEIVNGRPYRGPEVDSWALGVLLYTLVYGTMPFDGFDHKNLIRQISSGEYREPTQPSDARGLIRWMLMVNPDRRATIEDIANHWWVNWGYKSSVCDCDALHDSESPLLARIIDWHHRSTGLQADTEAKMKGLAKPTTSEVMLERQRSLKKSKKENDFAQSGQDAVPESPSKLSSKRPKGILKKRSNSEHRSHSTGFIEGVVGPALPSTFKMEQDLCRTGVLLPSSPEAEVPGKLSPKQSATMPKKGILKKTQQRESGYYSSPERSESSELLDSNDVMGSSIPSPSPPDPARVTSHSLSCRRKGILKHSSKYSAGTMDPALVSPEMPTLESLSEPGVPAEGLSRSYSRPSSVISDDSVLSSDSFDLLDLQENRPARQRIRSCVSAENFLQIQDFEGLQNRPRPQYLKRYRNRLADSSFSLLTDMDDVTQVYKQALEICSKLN
Chain of UniProt Q9UQB9 (whole entry, looked up): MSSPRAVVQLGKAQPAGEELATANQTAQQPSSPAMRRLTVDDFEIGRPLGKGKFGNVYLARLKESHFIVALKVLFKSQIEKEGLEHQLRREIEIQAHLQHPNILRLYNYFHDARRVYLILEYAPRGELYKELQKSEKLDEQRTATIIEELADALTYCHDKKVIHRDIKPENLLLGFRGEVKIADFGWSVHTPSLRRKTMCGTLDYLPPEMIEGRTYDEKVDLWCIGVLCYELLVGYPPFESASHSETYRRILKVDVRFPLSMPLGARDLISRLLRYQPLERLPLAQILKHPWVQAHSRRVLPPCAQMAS
Chain of UniProt P52564 (whole entry, looked up): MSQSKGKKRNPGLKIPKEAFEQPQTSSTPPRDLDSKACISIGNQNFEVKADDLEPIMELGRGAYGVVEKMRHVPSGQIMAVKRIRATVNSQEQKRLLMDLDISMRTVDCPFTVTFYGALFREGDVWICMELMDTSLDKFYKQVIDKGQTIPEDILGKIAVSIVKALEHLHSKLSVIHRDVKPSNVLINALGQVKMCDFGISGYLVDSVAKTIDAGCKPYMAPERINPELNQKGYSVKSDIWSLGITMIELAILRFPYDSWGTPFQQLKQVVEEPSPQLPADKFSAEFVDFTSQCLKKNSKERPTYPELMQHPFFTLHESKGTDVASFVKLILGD

Study 1
Structure (SMILES): CCCNC(=O)Nc1ccc(Oc2ncnc3cc(OC)c(OC)cc23)cc1Cl
Observed: enzyme activity
Mode: inhibitor
Concentration: 0.5 µM
Baseline: control
EPHA7 (Homo sapiens, UniProt Q15375) — remaining activity: 86.3%.
FGFR4 (Homo sapiens, UniProt P22455) — remaining activity: 73.9%.
It gave 92.3% for remaining activity (NUAK1 (Homo sapiens, UniProt O60285)).
EPHB2 (Homo sapiens, UniProt P29323) — remaining activity: 90.8%.
It gave 51.1% for remaining activity (CSF1R (Homo sapiens, UniProt P07333)).
RPS6KA1 (Homo sapiens, UniProt Q15418) — remaining activity: 92.3%.
The remaining activity was 97.4% (MYLK (Homo sapiens, UniProt Q15746)).
GRK2 (Homo sapiens, UniProt P25098) — remaining activity: 103%.
It gave 81.5% for remaining activity (PAK2 (Homo sapiens, UniProt Q13177)).
It gave 95.8% for remaining activity (SRPK3 (Homo sapiens, UniProt Q9UPE1)).
It gave 71.6% for remaining activity (Aurora kinase C (AURKC, Homo sapiens, UniProt Q9UQB9)).

Study 2
SMILES: CCCOc1ccc([C@H]2[C@H](C(=O)O)[C@@H](c3ccc4c(c3)OCO4)CN2CC(=O)Nc2c(CC)cccc2CC)cc1
Observed: cell-free assay
Method: competition with immobilised ligand
Concentration: 1 µM
KIT (Homo sapiens, UniProt P10721, D816V) — remaining binding: 92%.
MAP2K6 (Homo sapiens, UniProt P52564) — remaining binding: 100%.
PIK3CB (Homo sapiens, UniProt P42338) — remaining binding: 73%.
The remaining binding was 100% (CSNK1G2 (Homo sapiens, UniProt P78368)).
PRKD2 (Homo sapiens, UniProt Q9BZL6) — remaining binding: 84%.
The remaining binding was 100% (CDK14 (Homo sapiens, UniProt O94921)).
For Insulin receptor (INSR, Homo sapiens, UniProt P06213): remaining binding read 74%.
The remaining binding was 87% (FGFR4 (Homo sapiens, UniProt P22455)).
PIK3C3 (Homo sapiens, UniProt Q8NEB9) — remaining binding: 78%.

Study 3
Species: human
Matrix: microsomes or S9
Concentration: 2 µM
Time: 0.5 h
The remaining compound of `Cn1cc(C2c3ccccc3C(=O)N2C2CCCCC2)c2ccccc21` (stereo not shown) is reported as 33.3%.
For `Cc1cccc(-n2ccnc2S(=O)(=O)C(C)C(=O)N(C(C)C)C(C)C)c1` (stereo not shown), the remaining compound was 0.0725%.
With `COc1c2c(c(S(=O)(=O)N3CCOCC3)c3c1C(=O)N(C)CC3)OCO2` the remaining compound was 90.6%.
The remaining compound of `Cc1ccc(-c2csc3ncn(-n4cccc4)c(=O)c23)o1` is reported as 28.2%.
With `CCN(CC)CCCC(C)NCc1c(C)nn(-c2ccc(F)cc2)c1C` (stereo not shown) the remaining compound was 68.8%.
`COc1cc2c(cc1O)[C@@H]1Cc3ccc(O)c(OC)c3CN1CC2` has a remaining compound of > 99.9%.
For `C[C@@H]1C[C@H]2[C@@H]3CCC4=CC(=O)C=C[C@]4(C)C3(F)[C@@H](O)C[C@]2(C)[C@@]1(O)C(=O)CO` (stereo partly shown), the remaining compound was 75.2%.
The remaining compound of `c1ccc(COc2ccc(-c3n[nH]cc3CN3CCNCC3)cc2)cc1` is reported as 51.6%.
With `COc1cc2c(=O)n(CCO)c(=O)n(CCCN(C)C)c2cc1OC` the remaining compound was 71.8%.
For `Nc1ncnc2c1cnn2-c1nc2ccccc2s1`, the remaining compound was 27.9%.
For `Cc1ccc(Cn2c(=O)c3nn(C)cc3n3c(=O)n(Cc4nc(-c5ccccc5)oc4C)nc23)cc1`, the remaining compound was 24.6%.

Study 4
Structure (SMILES): CC(C)n1cnc(-c2ccc(F)cc2)c1-c1ncc(C(=O)Nc2ccc(N3CCN(C)CC3)cc2)[nH]1
Method: Phase 2a trial
Species: idiopathic pulmonary fibrosis patients
For item: reticulocyte count increased; 30 mg once daily, grade 2 maximum intensity: “patients with adverse events” read 0%.
It gave 0% for “patients with adverse events” (item: vision blurred; 60 mg once daily, grade 2 maximum intensity).
It gave 0% for “patients with adverse events” (item: vision blurred; dose not given, grade 4 maximum intensity, all arms).
For item: tri-iodothyronine increased; dose not given, grade 2 maximum intensity, all arms: “patients with adverse events” read 0%.
For item: gamma-glutamyltransferase increased; dose not given, grade 3 maximum intensity, all arms: “patients with adverse events” read 0%.
It gave 0% for “patients with adverse events” (item: gamma-glutamyltransferase increased; 30 mg once daily, grade 4 maximum intensity).
For item: neutrophil count increased; 60 mg once daily, grade 4 maximum intensity: “patients with adverse events” read 0%.
It gave 0% for “patients with adverse events” (item: tri-iodothyronine increased; dose not given, grade 4 maximum intensity, all arms).
item: oral herpes; oral, 60 mg once daily, grade 3 maximum intensity — “patients with adverse events”: 0%.

Some of these lines once more (study 2):
PIK3C3 (Homo sapiens, UniProt Q8NEB9) — remaining binding: 78%.
For Insulin receptor (INSR, Homo sapiens, UniProt P06213): remaining binding read 74%.
